Published values pooled from the literature.
A part holds a random share of what one study measured. Positions count from the first letter of the parent shown.

Set 1 — technique: DHFR PCA, deep sequencing; sample: yeast; added: (+)-ABA 0.11 µM; baseline: wild-type fitted maximum; direction: higher = stronger binding; quantity: relative binding score
Target: ABI1, truncated, D143A, DHFR fusion (Arabidopsis thaliana)
Notes: methotrexate growth selection, single substitutions
Starting sequence: PYL1, truncated, DHFR fusion (Arabidopsis thaliana); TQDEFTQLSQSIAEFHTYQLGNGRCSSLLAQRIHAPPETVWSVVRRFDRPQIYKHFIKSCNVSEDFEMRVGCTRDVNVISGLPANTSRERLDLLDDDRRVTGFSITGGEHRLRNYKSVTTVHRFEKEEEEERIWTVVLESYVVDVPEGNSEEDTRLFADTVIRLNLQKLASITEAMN; partner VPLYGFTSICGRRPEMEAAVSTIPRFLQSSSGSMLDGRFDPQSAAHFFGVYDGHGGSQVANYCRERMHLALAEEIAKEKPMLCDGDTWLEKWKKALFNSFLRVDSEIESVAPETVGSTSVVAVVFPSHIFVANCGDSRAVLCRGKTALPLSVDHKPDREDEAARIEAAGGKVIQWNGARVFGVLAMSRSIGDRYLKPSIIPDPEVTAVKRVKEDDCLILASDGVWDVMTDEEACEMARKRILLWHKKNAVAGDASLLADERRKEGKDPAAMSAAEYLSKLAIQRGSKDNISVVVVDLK
E14I: 0.0488%
N114M: -3.29%
E152D: 23.8%
P36G: -2.37%
L82P: 9.22%
W134L: 21.9%
A13W: 3.4%
C72Q: 42.5%
A84I: 32.6%
H34R: 31.6%
S42M: 6.3%

Set 2 — target: CCND1, cyclin fold, Cln2 fusion (human); technique: yeast growth competition, sequencing; sample: yeast; notes: weak parent motif; baseline: not given; direction: higher = stronger binding; quantity: normalised enrichment score
Starting sequence: GMNC docking peptide (human); KNAKRNLSSEFAN
KNAKRNSSSEFAN [L7S]: -0.0113
KNAARNLSSEFAN [K4A]: 0.669
KNEKRNLSSEFAN [A3E]: -0.0172
KNAKRNLSSLFAN [E10L]: -0.203
KNAKRNLPSEFAN [S8P]: 0.0788
KNAKRCLSSEFAN [N6C]: 0.315
KNAKRILSSEFAN [N6I]: -0.0908
KNACRNLSSEFAN [K4C]: 1.33
KNAKRWLSSEFAN [N6W]: 0.265

Set 3 — technique: RNA Bind-n-Seq; form: RNA; sample: in vitro; concentration: not given; baseline: input RNA pool; direction: higher = stronger binding; quantity: bound/input enrichment
Target: RING finger protein unkempt homolog, zinc fingers 1-6, GST-SBP tag (UNK, Homo sapiens, UniProt Q9C0B0, residues 30-357)
Notes: RNA with constant flanks, human and mouse sites, ends assumed
All sequences stand within: GGGAGUUCUACAGUCCGACGAUC … CAACAGAGGAUUGAGCAUCA
Target sequence (chain): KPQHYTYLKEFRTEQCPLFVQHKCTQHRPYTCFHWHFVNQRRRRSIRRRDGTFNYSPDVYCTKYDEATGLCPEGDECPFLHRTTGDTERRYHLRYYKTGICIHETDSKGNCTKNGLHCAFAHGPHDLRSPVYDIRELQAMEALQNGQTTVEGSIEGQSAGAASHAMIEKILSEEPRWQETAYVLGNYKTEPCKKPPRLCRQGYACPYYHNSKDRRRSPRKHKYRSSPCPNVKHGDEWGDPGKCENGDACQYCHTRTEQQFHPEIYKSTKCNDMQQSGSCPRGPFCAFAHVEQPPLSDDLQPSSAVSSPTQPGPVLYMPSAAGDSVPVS
UUUUGUAUUGUACAUAAAAUUACCUAGAAAUGCACUUUUCCUCCAAAAUGUAGGUUCGUGAAUAGACUUAGCAUGAUGAAGCUGUCUUUACAGUGAAUGCUUACCCUGUGUAGAGAAAGC: 1.13 ratio
CGGGAUGACCAGACUCCCGGACUCCUCAGGCAGUGCCCUUUCCUCCCACUUUUCCUCCCCCAUAGCCACAGGCCUCUGCUCCUGCUCCUGCCUGCAUGUUCUCUCUGUUGUUGGAGCCUG: 0.981 ratio
CUCGAUAAUUGCUUGUGUGUCAAUGGGGAAAUCGAAGGCCUGAAUGACACCUUUAAGGAACUGGAGUUUCUUAGCAUGGCCAACGUGGAGUUGAGUUCCUUGGCCCGGCUUCCCAGCUUG: 0.0778 ratio
AACAAUCCAUAUGCAACUGAAGAAGAAAAUUCAAAUGAGCUCAGUAUAAAUACUGAAGUGUAUUCCUUACCGUCAAAGAAGCUAGUGGUGCUUCAGUUAAGGUCCAUCUUUAUUAAGUAC: 0.222 ratio
AACGUGGCAUUCAUGAGCUAUUUUUUACAGGGCAAGCUUGAUGCUUGCCUAGAGCUCUUGAUCAGAACAGGAAGACUCCCAGAAGCUGCCUUCCUGGCCCGAACUUACUUACCCAGUCAG: 0.135 ratio
GCAGGAUCUUCUAAGUACCAGUGGGACAUUAUGAAAUCCCUUGGGCUCUCUGAUGACGACAUAGUGAAGUUUUCUGAAGCAGAGCACUGGCUUGAUUAUUUCCCACCACUGGCCGUUCAG: 0.132 ratio
AUUCAGAACAGCAACAAAAAAAUAUUGCAGUGUCCUAAAUGUGAUAAAACAUUUGACCGAAUAGGAAAAUAUGAGAGCCACACCCGUGUUCACACAGGUGAGAAGCCCUUUGAGUGUGAU: 0.55 ratio
AGGUUGGGGCAUGAGUGGGCAUUUUCCUAAUGACUUGCUGCUAGGAGGUUAUAGGCAGGGAACAGUCUGGGAGUCUCUAAUCCAGAGAGACUUUCAGAUUCCCUCUCUUCACAUGAACCU: 0.111 ratio

Further values, each from its own experiment
PhoQ, residues 284 288 289 292 302 303 SMMNNA  fold induction (PhoP, residues 12 14 15 18 19 VHSCL (Escherichia coli, UniProt P23836); Sort-seq, refers to: YFP reporter; E. coli; PhoQ-PhoP variant library, added: 10 µM Mg2+; baseline: high Mg2+ state, higher = stronger signaling): 13.1

For quick reference, copied from above (set 1):
N114M: -3.29%
E152D: 23.8%
P36G: -2.37%
L82P: 9.22%
W134L: 21.9%
